Published values pooled from the literature.
Every numbered part comes from another study and shows a few of its results, in no order.

Study 1
Target: RNA binding protein fox-1 homolog 2, RRM domain, GST-SBP tag (RBFOX2, Homo sapiens, UniProt O43251-10, residues 100-194)
Technique: RNA Bind-n-Seq
Form: RNA
Sample: in vitro
Tested at: 365 nM
Notes: natural RNA segment, single round, ends assumed
Relative to: no-protein control
Reading: higher = stronger binding
Constant ends, left off below: GGGAGUUCUACAGUCCGACGAUC … UGGAAUUCUCGGGUGCCAA
Target sequence (chain): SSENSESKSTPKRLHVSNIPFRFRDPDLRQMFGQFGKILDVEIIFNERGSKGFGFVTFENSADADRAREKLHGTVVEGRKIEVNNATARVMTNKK
Strand	RBNS enrichment (R)
UAAUACAUCAUGGGAUAUAUAUAAAGCAACUUAAUUCUUGUGGUGUAGUCUUAAUAGUUUUGAAUGUUGACUGAAUGUCUAUAAAAUUGUGAGUUUGUCUUUGUUACAUU	2.17
CAGAAGGGUGCCACAUCAGUCCCCUCCCCAACCUCAGUGACUGACAGAGGAUCCGGAUCUCAGAGCCUGAGACCAGGUUUAUUGGGGCCUGGCCUGUCCUCUAAGUCAAG	0.217
UGCCUUGAGCAAGUCUCAUUUUCUUUGUAAGCUGCCUCUUCCGCCAUUUCAUCUGAGGUUGCUGUCUUUUUGGUGGGGAGGGGUUUGGGGAACCCAUCAGGUAUGAGUGA	1.17
CAGUGUACAAAAUAUGAAACAACUGUUUCCACACUUGCACCUGAUCAAGAGCAGUGCUUCUCCAUUUGUUUUGCAGAGAAAUGUUUUUCAUUUCCCGUGUGUUUCCAUUU	0.326
GCUUAGGGUAGGGAUGGUAAAUAUCCUCCCUGCAUGGCUUUAUCCUCCCUCUCAUCCCAAAGCAGGUAUCUUCUGGUUGUCACAGAGUUUCAUUGAGUCCAGCUGCAGCC	0.777
GUAGAGCUGUGAGAGCAGUGGGGGCUGCCCUCUGUAGAGCUGUGAGAGCAGUGGGGGCUGCCCUCUGUAGAGCUGUGAGGGAGAGGCUUUCUGAUCAGAUGAACAUCUGU	0.516
ACCCCCUGUCAGAAGGUACCGUCGCAUAUCCAUGUGAAGCAGACGACUCCCUGCUUGCCGCACACACCUCGGACAGUGAGCAACCCAGGCUCUGCCGUGUUCAGACGUCG	0.648
UCAAAGCCCAGGUAUCUCUCAGAUCUGCUGCCUGAGAAAUAAGCUCCUUUAUCAGUUAGCUGUUUUAUCAUUAGGAUACAAGACAGCCCAGUGUCAUCAACAGUGAGCAA	0.325

Study 2
Target: Centromere-binding protein 1, full length, N-terminal tag (CBF1, Saccharomyces cerevisiae, UniProt P17106, residues 1-351)
Chain of UniProt P17106 (whole entry, looked up): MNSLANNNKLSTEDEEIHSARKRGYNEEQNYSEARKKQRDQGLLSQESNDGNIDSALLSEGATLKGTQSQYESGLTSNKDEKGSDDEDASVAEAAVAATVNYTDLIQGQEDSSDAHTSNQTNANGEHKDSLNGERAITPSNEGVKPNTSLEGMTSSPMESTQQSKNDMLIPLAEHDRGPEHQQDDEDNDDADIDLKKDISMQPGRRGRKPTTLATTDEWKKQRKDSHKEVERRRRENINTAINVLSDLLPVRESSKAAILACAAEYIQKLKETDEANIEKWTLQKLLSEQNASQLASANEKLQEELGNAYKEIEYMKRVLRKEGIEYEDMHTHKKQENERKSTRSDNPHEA
Technique: protein-binding microarray
Form: double-stranded DNA, one strand shown
Sample: in vitro
Tested at: 0.8 µM
Notes: whole 60-bp probe, no competitor
Reading: higher = stronger binding
Constant ends, left off below: … GTCTTGATTCGCTTGACGCTGCTG
Strand	fluorescence intensity [a.u.]
GAATGGATCCCTTCTGATGTATTTTCGGCGGCCTAG	496
CTATTTGTATATGATAGTGTGATTTAGCGATATTTC	607
CCTAACTACTATAAGTTCGTGCTATAGCTTCGTACA	481
GAACGATTATATACTAACATCATGTACAAAACATAG	557
CTACCTTTGCGTGTGCACGTTTGTTTACTTTCTTTC	682
CTAAAAAGGGATGAATACGTGGGAAACGGTTGCTTC	505
CTAAGTTAACTGTAACATGTGCTGCTATATAGTTTC	884
TGTACGAAGCTATATCAGCAGATTATAGTAGTTAGG	512
CCTAACTACTATATGCATGTTATATAGCTTCGTACA	514
CTAAATAACCTAATTCACGTTACCCACCTTTTTTTC	605
CTATTTGTAGTATTCTTCGTGATCTTTTTCTCTTTC	603
GAAAGGACCACCCCACGTGCCAGAATTGTTTCATAG	4780
CTAAGCGGGTCACGTGGTCGCGCAAATGATGATTTC	29100
TGTACGAAGCTATGTCCTGATGTTATAGTAGTTAGG	546
GAAATAATTTATAATCACGCCTGGGTAAATGACTAG	1190
CTAATACATATGATTCACGTGAAAATTTTTATATTC	4110
GAATTATATTAGAGTAACTTAATCACGTGTTAATAG	17000
CCTAACTACTATAATAACATCACATAGCTTCGTACA	518
GAAATACGCAACAGTCACGTTATATTCATGCAATAG	1580

Study 3
Target: TAR DNA-binding protein 43, full length, His tag (TARDBP, Homo sapiens, UniProt Q13148, residues 1-414)
Technique: RNA Bind-n-Seq
Form: RNA
Sample: in vitro
Tested at: 20 nM
Notes: 6-mer, flanks averaged, single round
With: 150 mM LiCl
Relative to: input library
Reading: higher = stronger binding
Strand	6-mer enrichment (R)
UAGCCC	1.02
UACUUG	0.927
GGGGCU	1.16
CGCAGU	0.926
CGCACU	0.859
CCGGAU	0.886
GGACAG	1.03
ACUUGG	0.943
GACUGU	1.11
GGGAUC	1.02
AGCAUC	0.794
UUUAGA	0.971
AAACCA	0.819
CUGCAG	0.906
AACUCA	0.87
ACAGCC	0.868
UCGCCC	0.99
AGAGCC	0.912
UGGCAU	0.964
CGUCUG	0.922
AAUGAG	1.07
GGCAGG	1.17
UGCUCC	0.983
CUAAUA	0.953
UCUUAU	1.01

Study 4
Target: Sal-like protein 4, full length isoform B (SALL4, Homo sapiens, UniProt Q9UJQ4-2, residues 1-616)
Technique: universal PBM
Form: double-stranded DNA, one strand shown
Sample: in vitro
Tested at: not given
Notes: 8-mer, flanks averaged, mean of replicates
Reading: higher = stronger binding
Strand	E-score
CGCTTACC	-0.0628
CCTAAACG	-0.11
AGTCTACA	0.0228
AGAATATC	0.18
GGACGGCC	-0.398
AGGCTAGG	-0.215
AGCCATAA	0.255
GGTTAAAC	0.102
CTGTTTAA	0.0522
CCTTTAAG	-0.0695
CTCGTTGA	-0.043
GCGTACAC	0.0207
ATACTGCC	-0.0965
AACTGTGT	-0.0214
GACTCTAC	-0.179
GGTGTCTA	-0.0415
CCCCTTCA	-0.137
GGCCTAGA	-0.209
CACTGAAC	0.0386
AGATTCCA	0.0486
AGAGAATC	-0.0043
CATTTCGA	0.0969
GGTTAGTA	0.00156
AAGCGCTG	-0.102
AAGCAGCC	-0.125
